# Measured values collected from several papers.
# A part holds a random share of what one study measured.

# Study 1 — method: competition protein-binding microarray; form: double-stranded DNA, one strand shown; sample: in vitro; tested at: 2 µM; together with: Cbf1 competitor, 0.05 µM; direction: higher = stronger binding
# Target: Phosphate system positive regulatory protein PHO4, full length, GST-tagged (PHO4, Saccharomyces cerevisiae, UniProt P07270, residues 1-312)
# Setting: whole 60-bp probe, lowest competitor level
# Residues (chain): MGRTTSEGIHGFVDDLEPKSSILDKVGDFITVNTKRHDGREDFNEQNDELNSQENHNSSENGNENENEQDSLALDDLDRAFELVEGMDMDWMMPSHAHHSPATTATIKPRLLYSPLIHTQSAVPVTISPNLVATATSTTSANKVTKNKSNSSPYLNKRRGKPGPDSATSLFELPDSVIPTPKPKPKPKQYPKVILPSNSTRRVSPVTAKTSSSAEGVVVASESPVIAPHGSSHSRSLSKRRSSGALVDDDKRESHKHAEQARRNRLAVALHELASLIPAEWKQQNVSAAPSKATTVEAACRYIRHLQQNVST
Sequence,fluorescence intensity
TGCGCAACAACTTGTCACCCAACTTTATGTCTAGAAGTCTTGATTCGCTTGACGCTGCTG,3510 a.u.
CGTCCTAGTGATTGTAAAGTGGGTGCCATGAGGAAGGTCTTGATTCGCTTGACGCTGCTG,6430 a.u.
GGCAATGGTGGCCGCTGCGTGCGATGTCTGGTGTAGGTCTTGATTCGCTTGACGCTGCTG,9300 a.u.
GGGTGCCGGTACTTCCACGGGCCTCCAGTCCAGGACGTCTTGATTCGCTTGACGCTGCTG,5750 a.u.
TTTCTCACAAGACTGCTCGTGGTGAGGCCGCTTTGGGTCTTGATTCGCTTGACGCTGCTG,8030 a.u.
CCCGCGACTCTAAAGCACGGGATTGAAGTCAGCTTCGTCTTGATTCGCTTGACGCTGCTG,8670 a.u.
CTATAGGATAACCATCACGGCTAAAACGGTCGAATGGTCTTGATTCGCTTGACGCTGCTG,4000 a.u.
GATCGATTCGGCTGTCATGCCAAGATGCGAGTATGTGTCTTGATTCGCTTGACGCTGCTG,4830 a.u.
TATCACCCTTTAGGAGCCGTGATGGAGAAGACTACCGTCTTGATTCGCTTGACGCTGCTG,4250 a.u.
AAAGCGGTAATTTGCTATGTGGGTGCAGATATCTATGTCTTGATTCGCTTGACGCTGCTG,4210 a.u.
CTAACGAAGGTTTGCGAGGTGGGTGACAAGCCAAGTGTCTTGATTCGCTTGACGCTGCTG,3650 a.u.
AAATCAATGGGCTCAGCTCATCTTGAAAAGCTCACTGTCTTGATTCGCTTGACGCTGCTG,2230 a.u.
CCCTTGATTTCTGCCTGTGTGATATTAAATAATTGTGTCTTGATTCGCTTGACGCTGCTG,4540 a.u.
TTATGTACAACAGCCCTCGTGCTTTCACCGTTGTAGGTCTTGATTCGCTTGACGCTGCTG,11800 a.u.
GTCCACTCCCGCACTCACGTGTTCCCGCCTTGCCCTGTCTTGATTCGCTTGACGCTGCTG,13800 a.u.
AAATTACTAAGTTGTCACCCGACTTACCCCGTATGAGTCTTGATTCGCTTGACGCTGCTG,3310 a.u.
AAATTACTAAGTTGCATTGTGGGTGACGCCGTATGAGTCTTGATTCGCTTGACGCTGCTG,5130 a.u.

# Study 2 — method: RNA Bind-n-Seq; form: RNA; sample: in vitro; tested at: 200 nM; setting: whole 134-nt RNA, ends assumed; together with: 150 mM KCl; baseline: input library; direction: higher = stronger binding
# Target: Fragile X messenger ribonucleoprotein 1, C-terminal low-complexity region (Fmr1, Mus musculus, UniProt P35922)
Sequence,log2 enrichment
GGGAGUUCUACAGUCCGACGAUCUCAAGUCCUGUGCUACACAUCGUAUGUACCGAAUCGGUUUGGAAAGGUUUUUGGAAAGUAUUAUGUUACGCCGUUCGGAUCUGCACUUCCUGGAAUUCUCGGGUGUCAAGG,-0.442
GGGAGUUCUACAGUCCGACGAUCUCCUGUGCUACACAUCGUAUGUACCGAAUCGGGGCCCCCCGGCCCCCCGGCCCCCCGGGAAAGUAUUAUGUUACGCCGUUCGGAUCUGCAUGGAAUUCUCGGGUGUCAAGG,-0.428
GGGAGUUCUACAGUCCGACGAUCUAACUUUAGAGGAGGAUCUGAUGGAUAUGGCAGUGGACGUGGAUUUAGGGAUGGCUAUAAUGGGUAUGGAGGAGGACCUGGAGGUGGCAAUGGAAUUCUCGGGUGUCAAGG,0.335
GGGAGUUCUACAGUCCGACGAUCUUUCCAGCAGUACCAGCUCCAGCCAGGAUCACCCUCUCUACUCUGGGCACCCAUCCCUUCCACUAAGUGGUGCUAUUGCUGCUUUUGCCUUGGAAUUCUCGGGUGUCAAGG,0.202
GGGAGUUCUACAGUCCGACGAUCUAACUUUAGAGGAGGAUCUGAUGGAUAUGGCAGUGGACGUGGAUUUGGGGAUGGCUAUAAUGGGUAUGGAGGAGGACCUGGAGGUGGCAUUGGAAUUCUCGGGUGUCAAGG,0.202
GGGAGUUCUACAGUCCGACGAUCCAAGUCCUGUGCUACACAUCGUAUGUACCGAAUCGGGGAAAGGGGUGGGGAGGGGAAAGUAUUAUGUUACGCCGUUCGGAUCUGCACUUCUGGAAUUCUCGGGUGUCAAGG,1.26
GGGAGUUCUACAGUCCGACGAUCCCUGUGCUACACAUCGUAUGUACCGAAUCGGGUUUUUUUGGGGUUUUUUUGGUUUUUUUGGAAAGUAUUAUGUUACGCCGUUCGGAUCUGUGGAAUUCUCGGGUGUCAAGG,-0.609
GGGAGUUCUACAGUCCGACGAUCUGGCCCUGGUGGCAUGCGGGGAGGAAGAGGUGGCCUCAUGGAUCGUGGUGGUCCCGGUGGAAUGUUCAGAGGUGGCCGUGGUGGAGCCAGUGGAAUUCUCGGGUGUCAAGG,0.144
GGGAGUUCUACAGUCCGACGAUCUCCUCAAGUCCUGUGCUACACAUCGUAUGUACCGAAUCGGCGGGGCGGGCGGAAAGUAUUAUGUUACGCCGUUCGGAUCUGCACUUCCAGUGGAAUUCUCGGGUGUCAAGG,0.186
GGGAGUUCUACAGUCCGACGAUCCAAGUCCUGUGCUACACAUCGUAUGUACCGAAUCGGGUUUGGGUGGGUUUUUGGGAAAGUAUUAUGUUACGCCGUUCGGAUCUGCACUUCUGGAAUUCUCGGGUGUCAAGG,1.03
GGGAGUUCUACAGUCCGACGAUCUUAAGGGAAUCUAUUGCUGAACACAAACCUCAUAUUGACAAACUACUAAAGAUAGGCCCACAACUAAAGGAAUUAAACCCUGAGGAAGGGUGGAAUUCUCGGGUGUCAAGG,0.0192
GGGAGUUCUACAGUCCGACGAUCUCAAGUCCUGUGCUACACAUCGUAUGUACCGAAUCGGGGAAGGGAAGGGGAAGGGAAAGUAUUAUGUUACGCCGUUCGGAUCUGCACUUCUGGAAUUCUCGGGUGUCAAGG,0.745
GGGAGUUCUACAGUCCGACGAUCUGGGAGGUGGAUUUUGUUUAUUUUUUUAGCUCAUUUCCAGGGGUGGGAAUUUUUUUUUAAUAUGUGUCAUGAAAAAAGUUGUUUUUGAAAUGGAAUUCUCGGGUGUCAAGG,0.397
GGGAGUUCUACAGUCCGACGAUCAAGUCCUGUGCUACACAUCGUAUGUACCGAAUCGGAAAAGGGAAAAGGGGAAAAGGGAAAGUAUUAUGUUACGCCGUUCGGAUCUGCACUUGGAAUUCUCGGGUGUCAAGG,-0.224

# Study 3 — method: RNA Bind-n-Seq; form: RNA; sample: in vitro; tested at: 365 nM; baseline: no-protein control; direction: higher = stronger binding
# Target: RNA binding protein fox-1 homolog 2, RRM domain, GST-SBP tag (RBFOX2, Homo sapiens, UniProt O43251-10, residues 100-194)
# Setting: natural RNA segment, single round, ends assumed
# Target sequence (chain): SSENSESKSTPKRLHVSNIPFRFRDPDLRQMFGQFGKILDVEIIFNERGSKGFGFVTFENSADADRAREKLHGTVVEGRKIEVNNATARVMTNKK
Sequence,RBNS enrichment (R)
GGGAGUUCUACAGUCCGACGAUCGCUAAUGUUAGGGCUUAAUUUUCUCAAAGCCUGACCUUUCAAAUCCAUGAUGAAUGCCAUCAGUCCCUCCUGCUGUUGCCUCCCUGUGACCUGGAGGACAGUGUGUGCCAUGGAAUUCUCGGGUGCCAA,0.701
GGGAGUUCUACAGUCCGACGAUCAAGGAAAUUCUGUCUGGUAGGUGCAAAGGGCUUCAUGGAUUUGGAAACCUGGAGGCAGGAACAUAGCAGAUUUAAGGGGUACCCAGCUGUGGAAGGUCAUUCCUGAGAAGUGGAAUUCUCGGGUGCCAA,0.529
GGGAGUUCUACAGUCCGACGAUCCACUUCGGAGUCAAAUCAUACACUAGGCCUUUGAUGCUUUAAUUCUUCUUCAGUUCAUUAAAAGUAACUACUAAGGAAAGGUUAAAAACUUCCCCUCAAAAAGGAAUCAAUGGAAUUCUCGGGUGCCAA,0.356
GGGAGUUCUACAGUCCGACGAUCAUAACUAAGCCUGUAAUUGGGCUGGUUUCUCUUACACCCUAGCACAGUUAAAAAAUGAAGUACUGUUUAACAUUUGCUCCCGAAAUAUUUCUUACUGUGUAAAAGAAGCUUGGAAUUCUCGGGUGCCAA,0.575
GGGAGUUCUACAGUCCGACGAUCGGAUAAUCUGAGCAGGUACAUUUCUGAUUCUGAUUGCUAUCAGCAAUGCCCCAAACUUUCUCAUAAGCACCUAAAACCCAAAGGUGGCAGCUUGUGAAGAUUGGGGACACUGGAAUUCUCGGGUGCCAA,0.341
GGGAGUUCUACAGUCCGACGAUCGCUCCCGCUUCCACCCCCACUGUCCAUCCUGACCUUUCCUUGCCCCACUUUCAGAGUCGAAUCAGCUCUGAGCCUAGGACAGUGCUGGCUCUCUGAGGGCAACCAGGCCUUGGAAUUCUCGGGUGCCAA,0.26
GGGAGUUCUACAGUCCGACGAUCGUGACUGGUGACUCUCAGGCAGGCAUGACAAAUUGCUGGCCUCCAUUCUUGGCCUUCCUAAUCACUCCCCACUCCUCUAGUCACAGUGUGGCUGAGGACUCAAGGCUGUGUGGAAUUCUCGGGUGCCAA,0.278
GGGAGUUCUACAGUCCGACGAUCUCCUUCCAGAGCUGUGGAAGAGAUGUUUGUGACCCCUCCCUUGGACUCUUGGGGGCCAAUCCCACUCUUGAGUGCAAUGGUUGCAUUUAGAAUCAGCUAGCUAGCCAGGGUGGAAUUCUCGGGUGCCAA,0.486
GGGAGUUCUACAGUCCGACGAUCGGGGAUUGACAGGUUUCAUCAUCGGAUAGACAUUUGGUUAUCCAGAGAGAAUUGGUAAUUUGCCAGCGUAAGGGACCCAAAGCCACCAGUGAGUACAUGCCCCAGAGAUGUGGAAUUCUCGGGUGCCAA,0.544
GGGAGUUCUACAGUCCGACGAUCAAGGCGAGGGCUACAGGCUGAGAGAGCUUGAGCUCAGAGGCUUUUAUGAACCGUUUCCUCUGAGGGCCACCCUUGAUCUCUAGCAGAACAGCAAGCAGAACACCGUGCAUUGGAAUUCUCGGGUGCCAA,0.65
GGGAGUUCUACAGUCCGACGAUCAUUCUUUAUUAUCUUAGUUUCAUGCUAUGUAUGUACCAUAACCAACCUAUUGCCUAUGAGAAACAUGUAAGAUAAUGUAUUUACAGCCAUUGUUACAAGUUUAUAAUGUAUGGAAUUCUCGGGUGCCAA,0.797
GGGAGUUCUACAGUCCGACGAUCAAGUAUUUAAUUGACUGCCUGAGAGUCAGCUUUGGGGGCGCUCUCAGUUUGCUUUAGCCAUGACUGCCUGAGAAGUCUUAACCUCUGUGCCUCUCUGUAUCCUAUGGAAAUGGAAUUCUCGGGUGCCAA,0.586

# Study 4 — method: aptamer microarray, sandwich; form: DNA with 2'F-ANA; sample: in vitro; tested at: 200 nM; together with: Cy3 exosite-II aptamer, 400 nM; direction: higher = stronger binding; sequence: GGTTGGTGTGGTTGG
# Target: Prothrombin, mature alpha-thrombin (F2, Homo sapiens, UniProt P00734)
# Setting: whole 15-mer aptamer, many near background
Modification,mean fluorescence intensity [a.u.]
2'F-ANA at 6 7 8 9 11 12 14,194
2'F-ANA at 1 3 8 12 14 15,143
2'F-ANA at 1 2 4 5 6 7 9 10 11,76.5
2'F-ANA at 5 6 7 10 11 15,47
2'F-ANA at 1 5 9 10 12 13 14,47.6
2'F-ANA at 1 3 4 11 14 15,73.8
2'F-ANA at 1 2 3 4 6 8 10 11 12 14 15,93.9
2'F-ANA at 1 2 3 4 5 6 7 8 9 14 15,53.7
2'F-ANA at 2 3 8 9 12 13,971
2'F-ANA at 1 7 8 9 12 15,488
2'F-ANA at 2 4 5 7 9 10 14 15,46.8
2'F-ANA at 3 4 5 7 11 12 13,137
2'F-ANA at 1 2 3 4 5 12 13 14,68.5
2'F-ANA at 2 3 4 5 6 7 9 10 12,59
2'F-ANA at 7 8 11 12 14,264
2'F-ANA at 1 4 7 8 10 11 13,49.3
2'F-ANA at 1 5 8 10 12,44.6
2'F-ANA at 5 6 8 9,86.8
2'F-ANA at 1 2 3 5 8 10 11 12 15,66.8
2'F-ANA at 3 4 6 10 11 12 13 15,241
2'F-ANA at 4 5 8 12 15,147
2'F-ANA at 2 3 4 5 6 9 11 12 13 15,90.9
2'F-ANA at 1 4 5 7 8 12 14 15,47.9

# Repeated from above (study 4):
Modification,mean fluorescence intensity [a.u.]
2'F-ANA at 6 7 8 9 11 12 14,194
2'F-ANA at 1 3 8 12 14 15,143
2'F-ANA at 1 2 4 5 6 7 9 10 11,76.5
2'F-ANA at 5 6 7 10 11 15,47
2'F-ANA at 1 5 9 10 12 13 14,47.6
